Assay results pooled from the literature.
Compare with care: the assays were run in different laboratories. Numbers after ± are the reported error.
Technique: steady-state kinetics
B1: Mj-MAT W387F/Y85W (Methanocaldococcus jannaschii, UniProt Q58605); chain MRNIIVKKLDVEPIEERPTEIVERKGLGHPDSICDGIAESVSRALCKMYMEKFGTILHHNTDQVELVGGHAYPKFGGGVMVSPIWILLSGRATMEILDKEKNEVIKLPVGTTAVKAAKEYLKKVLRNVDVDKDVIIDCRIGQGSMDLVDVFERQKNEVPLANDTSFGVGYAPLSTTERLVLETERFLNSDELKNEIPAVGEDIKVMGLREGKKITLTIAMAVVDRYVKNIEEYKEVIEKVRKKVEDLAKKIADGYEVEIHINTADDYERESVYLTVTGTSAEMGDDGSVGRGNRVNGLITPFRPMSMEAASGKNPVNHVGKIYNILANLIANDIAKLEGVKECYVRILSQIGKPINEPKALDIEIITEDSYDIKDIEPKAKEIANKFLDNIMEVQKMIVEGKVTTF
B2: protein (UniProt M4ZR24); chain MNEIGTTWAEGTSERVIRLLTDKRAGRPMSGPDIEGLVKDFTAGSVPDYQMASWLATVACAGLSAEELTALTAAYVDSGERLSLSSSRRPVADKHSTGGVGDKTTLVVAPVVAACGIGVGKVTGRGLGFMGGTVDKLESIPGLDLELSGSALSAQVADLGLAVTGQSPSLVPGDRMTYALRDVTGTVDSIPLIAASIMSKNTKGIAVRCNSIVLDVKYGDGAVLPDRAVATELARTMLELGRSFDLPTTAVISSMEQPLGYAVGNGLEVREAIIALSGTYVEDLTELAITISALMISTADSAVDHDRARDRVREVLSDGSALRMFRAFVARQGGDVGFVDDPSRLETAPHRLVVTATEAGHVARIAARRIGEAALRVGAGRLVYGAPIDHGAGIVLSRRIGDSVAEGEPLATLHGSDYDQLESLADVVRGCFDISERPPGRPDVIVDVLRQGDAG
B3: iodotyrosine deiodinase (Haliscomenobacter hydrossis, UniProt F4KU78); chain MKQKPAFIPYAGAQFEPEEMLSKSAEYYQFMDHRRTVREFSNRAIPLEVIENIVMTASTAPSGAHKQPWTFVVVSDPQIKAKIRQAAEKEEFESYNGRMSNEWLEDLQPFGTDWHKPFLEIAPYLIVVFRKAYDVLPDGTQRKNYYVQESVGIACGFLLAAIHQAGLVALTHTPSPMNFLQKILQRPENERPFLLVPVGYPAEGAMVPDLQRKDKAAVMVVY
B4: ABHD14B (Homo sapiens, UniProt Q96IU4); chain MAASVEQREGTIQVQGQALFFREALPGSGQARFSVLLLHGIRFSSETWQNLGTLHRLAQAGYRAVAIDLPGLGHSKEAAAPAPIGELAPGSFLAAVVDALELGPPVVISPSLSGMYSLPFLTAPGSQLPGFVPVAPICTDKINAANYASVKTPALIVYGDQDPMGQTSFEHLKQLPNHRVLIMKGAGHPCYLDKPEEWHTGLLDFLQGLQ
B5: FDC1 (Saccharomyces cerevisiae, UniProt Q03034); chain MRKLNPALEFRDFIQVLKDEDDLIEITEEIDPNLEVGAIMRKAYESHLPAPLFKNLKGASKDLFSILGCPAGLRSKEKGDHGRIAHHLGLDPKTTIKEIIDYLLECKEKEPLPPITVPVSSAPCKTHILSEEKIHLQSLPTPYLHVSDGGKYLQTYGMWILQTPDKKWTNWSIARGMVVDDKHITGLVIKPQHIRQIADSWAAIGKANEIPFALCFGVPPAAILVSSMPIPEGVSESDYVGAILGESVPVVKCETNDLMVPATSEMVFEGTLSLTDTHLEGPFGEMHGYVFKSQGHPCPLYTVKAMSYRDNAILPVSNPGLCTDETHTLIGSLVATEAKELAIESGLPILDAFMPYEAQALWLILKVDLKGLQALKTTPEEFCKKVGDIYFRTKVGFIVHEIILVADDIDIFNFKEVIWAYVTRHTPVADQMAFDDVTSFPLAPFVSQSSRSKTMKGGKCVTNCIFRQQYERSFDYITCNFEKGYPKGLVDKVNENWKRYGYK
B6: sacB (Priestia megaterium, UniProt D5DC07); chain KGNDSKDFNNSYGISHITRDNMVKIPQQQNSDQFKVPAFDESTIKNIASAKGKNASGNTIDLDVWDSWPLQNADGTVATYHGYQIVFALAGDPKDSNDTSVYLFYKKAGDKSIDSWKNAGRVFKDSDKFVPNDPHLKNQTQEWSGSGTLTKDGKVRLFYTDYSGKQYGKQTLTTAQVNMSQPNDNTLKVDGVEDYKSIFDGDGKIYQTVQQFIDEGGYDTGDNHTLRDPHYIEDNGHKYLVFEANTGTEDGYQGEDSLYNRAYYGGNNPFFQSEKKKLLEGSNKEKASLANGALGIIELNDDYTLKKVMKPLITSNTVTDEIERANIFKKDGKWYLFTDSRGSKMTIDGIGQDDVYMLGYVSNTLTGKYKPLNDTGLVLHMDLDPNDKTFTYSHFAVPQTKGDNVVITSYMTNRGFYEDNHSTFAPSFLVNIDGSKTSVVKDRVLEQGQLTVDED
B7: LYPLA2 (Homo sapiens, UniProt O95372); chain MCGNTMSVPLLTDAATVSGAERETAAVIFLHGLGDTGHSWADALSTIRLPHVKYICPHAPRIPVTLNMKMVMPSWFDLMGLSPDAPEDEAGIKKAAENIKALIEHEMKNGIPANRIVLGGFSQGGALSLYTALTCPHPLAGIVALSCWLPLHRAFPQAANGSAKDLAILQCHGELDPMVPVRFGALTAEKLRSVVTPARVQFKTYPGVMHSSCPQEMAAVKEFLEKLLPPV
B8: enzyme D254A (Thermococcus kodakarensis, UniProt Q5JID5); chain MLYVEILGNLPEMARDEVKAMLELGGGEIIGQDYLFLKVDAGEKAFPFLDRLGLAHEYGLLLVEADSVEELLQKAGEVEWPIKGAFKVDTETMANCRHDVLDLPRKLGAVIHAQGFRVNLSKPDTVVRVYCGERLYAGIRLRYFDPKDFEKRKAHHRPFFRPISLHPRVSRALVNLTKATREILDPFMGAGGILIEAGLLGLRVYGVDIRPEMVEGAETNLKHYGVRDYTLKLGDATRLEDLFPDKKFEAVATAPPYGTAATLAGRKRDELYRKALRSIYNVLEDGGRLAIAFPTDFNGKAEAEAVGFRTLGRYYQRVHKSLERYFYVFEK
B9: HCT R356D (Coleus scutellarioides, UniProt E8ZAP2); chain MKIHVRDSTLVRPSAATPAVSLWNSNVDLVVPNFHTPSVYFYRPSGADNFFDTAVMKAALGRALVSFYPMAGRLKRDEDGRVEIDCNAEGVLFVEAESDGTVDDYGDFAPSLELRRLIPAVDYSQGISAYPLLVLQVTFFKCGGVSLGVGMQHHAADGFSGLHFINTWSDMARGLDITLPPFIDRTLLSARDPPQPQFKHVEYQPPPAMKTYEPAETVVSIFKLTKDQLTTLKAKSKEDGNTTTYSSYEMLSGHVWRCTCLARGLPEEQETKLYIATDGRSRLQPQLPPGYFGNVIFTATPLAVAGDLGSKPVWYAASKIHDALARMDNDYLRSALDFLELQPDLKALVRGAHTFDCPNLGITSWVRLPIHDADFGWGRPIFMGPGGIAYEGLSFVLPSPTNDGSLSVAISLQAEHMKLFEKLLYQI
B10: UCK2 (Homo sapiens, UniProt Q9BZX2); chain MAGDSEQTLQNHQQPNGGEPFLIGVSGGTASGKSSVCAKIVQLLGQNEVDYRQKQVVILSQDSFYRVLTSEQKAKALKGQFNFDHPDAFDNELILKTLKEITEGKTVQIPVYDFVSHSRKEETVTVYPADVVLFEGILAFYSQEVRDLFQMKLFVDTDADTRLSRRVLRDISERGRDLEQILSQYITFVKPAFEEFCLPTKKYADVIIPRGADNLVAINLIVQHIQDILNGGPSKRQTNGCLNGYTPSRKRQASESSSRPH
Sequence of UniProt P10724 (whole entry, looked up): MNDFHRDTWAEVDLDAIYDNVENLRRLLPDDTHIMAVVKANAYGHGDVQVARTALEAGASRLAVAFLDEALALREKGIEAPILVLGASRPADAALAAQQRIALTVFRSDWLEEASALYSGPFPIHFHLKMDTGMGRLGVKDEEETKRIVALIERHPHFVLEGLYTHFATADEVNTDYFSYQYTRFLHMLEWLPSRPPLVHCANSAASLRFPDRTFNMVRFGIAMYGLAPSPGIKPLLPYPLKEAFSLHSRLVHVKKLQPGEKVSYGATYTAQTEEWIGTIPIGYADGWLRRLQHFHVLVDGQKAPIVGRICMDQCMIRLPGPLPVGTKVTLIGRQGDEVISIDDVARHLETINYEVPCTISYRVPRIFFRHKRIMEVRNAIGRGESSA
Sequence of UniProt Q8QZR1 (whole entry, looked up): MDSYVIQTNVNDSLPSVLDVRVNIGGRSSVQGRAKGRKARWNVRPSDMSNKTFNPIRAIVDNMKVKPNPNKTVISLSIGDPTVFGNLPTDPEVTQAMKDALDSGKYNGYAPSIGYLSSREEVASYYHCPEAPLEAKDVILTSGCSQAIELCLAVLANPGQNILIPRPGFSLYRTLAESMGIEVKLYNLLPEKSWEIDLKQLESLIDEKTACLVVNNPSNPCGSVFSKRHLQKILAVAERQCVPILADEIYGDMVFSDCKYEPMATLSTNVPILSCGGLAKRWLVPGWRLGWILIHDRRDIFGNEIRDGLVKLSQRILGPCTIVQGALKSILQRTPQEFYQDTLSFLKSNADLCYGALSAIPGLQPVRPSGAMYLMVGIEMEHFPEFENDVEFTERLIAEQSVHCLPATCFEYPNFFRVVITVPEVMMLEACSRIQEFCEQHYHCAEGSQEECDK
Sequence of UniProt Q9STE6 (whole entry, looked up): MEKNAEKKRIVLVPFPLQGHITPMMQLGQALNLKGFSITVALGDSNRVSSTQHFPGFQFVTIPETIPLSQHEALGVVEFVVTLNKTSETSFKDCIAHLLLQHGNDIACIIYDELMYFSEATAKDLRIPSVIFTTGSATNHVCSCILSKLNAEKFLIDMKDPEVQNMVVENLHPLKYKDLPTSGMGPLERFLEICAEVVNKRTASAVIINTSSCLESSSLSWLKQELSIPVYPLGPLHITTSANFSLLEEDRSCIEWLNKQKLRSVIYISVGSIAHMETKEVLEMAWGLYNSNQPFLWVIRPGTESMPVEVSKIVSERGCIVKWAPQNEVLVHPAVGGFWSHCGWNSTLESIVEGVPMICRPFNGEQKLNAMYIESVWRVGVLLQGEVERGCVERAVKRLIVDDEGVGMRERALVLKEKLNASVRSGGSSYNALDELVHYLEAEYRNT
Sequence of UniProt Q8KN33 (whole entry, looked up): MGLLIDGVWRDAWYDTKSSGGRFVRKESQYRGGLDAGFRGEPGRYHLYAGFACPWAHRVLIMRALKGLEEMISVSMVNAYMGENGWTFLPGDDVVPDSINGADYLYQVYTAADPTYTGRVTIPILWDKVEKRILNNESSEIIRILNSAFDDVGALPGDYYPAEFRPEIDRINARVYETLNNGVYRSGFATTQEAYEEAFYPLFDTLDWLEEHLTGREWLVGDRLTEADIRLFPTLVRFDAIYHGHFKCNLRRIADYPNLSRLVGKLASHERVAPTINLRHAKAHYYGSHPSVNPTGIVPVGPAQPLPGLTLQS
Sequence of UniProt P34752 (whole entry, looked up): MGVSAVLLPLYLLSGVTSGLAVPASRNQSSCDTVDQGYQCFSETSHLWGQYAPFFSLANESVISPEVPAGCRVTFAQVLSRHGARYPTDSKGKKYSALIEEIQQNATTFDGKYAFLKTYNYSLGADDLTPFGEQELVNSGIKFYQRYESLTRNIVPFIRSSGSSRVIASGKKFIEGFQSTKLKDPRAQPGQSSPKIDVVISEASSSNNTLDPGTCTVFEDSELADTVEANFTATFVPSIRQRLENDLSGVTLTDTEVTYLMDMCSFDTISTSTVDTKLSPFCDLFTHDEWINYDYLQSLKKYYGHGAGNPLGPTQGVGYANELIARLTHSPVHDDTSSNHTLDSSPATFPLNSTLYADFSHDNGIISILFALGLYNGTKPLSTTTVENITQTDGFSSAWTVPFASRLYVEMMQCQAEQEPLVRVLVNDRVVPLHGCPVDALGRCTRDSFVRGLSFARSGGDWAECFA
Sequence of UniProt P69848 (whole entry, looked up): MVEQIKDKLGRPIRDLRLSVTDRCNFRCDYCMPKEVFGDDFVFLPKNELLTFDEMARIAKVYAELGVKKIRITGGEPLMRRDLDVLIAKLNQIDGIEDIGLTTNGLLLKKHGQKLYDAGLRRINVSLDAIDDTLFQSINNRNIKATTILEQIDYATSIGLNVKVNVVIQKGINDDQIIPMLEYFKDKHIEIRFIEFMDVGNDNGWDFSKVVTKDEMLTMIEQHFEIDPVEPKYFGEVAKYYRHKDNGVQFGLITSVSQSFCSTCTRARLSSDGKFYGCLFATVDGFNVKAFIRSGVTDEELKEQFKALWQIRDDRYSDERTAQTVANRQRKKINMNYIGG

B1 (Mj-MAT W387F/Y85W) — kcat (CSCC[C@H](N)C(=O)O; 55 °C, added: ATP 2.5 mM, methionine 0.05-1 mM): 2.77 ± 0.06 s⁻¹
phyA (Aspergillus niger, UniProt P34752) — kcat (O=P(O)(O)O[C@@H]1[C@H](OP(=O)(O)O)[C@H](O)[C@@H](O)[C@H](O)[C@H]1OP(=O)(O)O; pH 5, 37 °C): 106 ± 11 s⁻¹
B2 (protein) — kcat (NC[C@H]1O[C@@H](n2ccc(=O)[nH]c2=O)C[C@@H]1O; phosphorolysis, single substrate, added: phosphate): 0.267 ± 0.0333 s⁻¹
B3 (iodotyrosine deiodinase) — kcat (N#Cc1cc(C[C@H](N)C(=O)O)cc(I)c1O; pH 7.4, 25 °C): 0.04 ± 0.008 s⁻¹
B4 (ABHD14B) — kcat (CC(=O)Oc1ccc([N+](=O)[O-])cc1; pH 8, 37 °C): 0.0367 ± 0.0133 s⁻¹
B5 (FDC1) — kcat (O=C(O)/C=C/c1ccc(O)cc1; pH 7, 25 °C, apparent kcat, incomplete cofactor occupancy, apparent): 1.5 ± 0.1 s⁻¹
B6 (sacB) — kcat (OC[C@H]1O[C@@](CO)(O[C@H]2O[C@H](CO)[C@@H](O)[C@H](O)[C@H]2O)[C@@H](O)[C@@H]1O; pH 6.6): 198 ± 3.3 s⁻¹
Alanine racemase (Geobacillus stearothermophilus, UniProt P10724) — kcat (C[C@@H](N)C(=O)O; pH 8.9, 25 °C, D to L direction): 1280 s⁻¹
B7 (LYPLA2) — kcat (CN(C)c1ccc(/N=N/c2ccc(C(=O)NCCCn3cc(CCCCCCCCCCCCCCCC(=O)OC[C@H](NC(=O)c4cc5ccc(O)cc5oc4=O)C(=O)N4CCOCC4)nn3)cc2)cc1; pH 7.4, 37 °C): 0.044 ± 0.003 s⁻¹
enzyme (Phocaeicola vulgatus, UniProt A6KWY2) — kcat (NC(=O)c1ccc[n+]([C@@H]2O[C@H](COP(=O)(O)OP(=O)(O)OC[C@H]3O[C@@H](n4cnc5c(N)ncnc54)[C@H](OP(=O)(O)O)[C@@H]3O)[C@@H](O)[C@H]2O)c1; pH 8, 30 °C, cofactor varied): 22 ± 1 s⁻¹
B8 (enzyme D254A) — kcat (C[S+](CC[C@H](N)C(=O)O)C[C@H]1O[C@@H](n2cnc3c(N)ncnc32)[C@H](O)[C@@H]1O; pH 7.5, 50 °C, apparent): 0.00167 ± 0.000333 s⁻¹
moaA (Staphylococcus aureus, UniProt P69848) — kcat (Nc1nc2c(ncn2[C@@H]2O[C@H](COP(=O)(O)OP(=O)(O)OP(=O)(O)O)[C@@H](O)[C@H]2O)c(=O)[nH]1; pH 7.6, 25 °C, added: SAM, dithionite, MgCl2 1 mM): 0.00075 ± 5e-05 s⁻¹
Tat (Mus musculus, UniProt Q8QZR1) — kcat (N[C@@H](Cc1ccc(O)cc1)C(=O)O; pH 7, 38 °C, 100 mM phosphate, added: 10 mM KGA; PLP): 19.3 ± 4 s⁻¹
B9 (HCT R356D) — kcat (NCc1ccc(O)c(O)c1; pH 8, pseudo-first-order, added: p-coumaroyl CoA): 27.7 ± 1.1 s⁻¹
enzyme (Arabidopsis thaliana, UniProt Q9STE6) — kcat (O=c1ccn([C@@H]2O[C@H](CO[P@@](=O)(O)O[P@@](=O)(O)O[C@H]3O[C@H](CO)[C@@H](O)[C@H](O)[C@H]3O)[C@@H](O)[C@H]2O)c(=O)[nH]1; pH 7.5, 25 °C): 0.0194 s⁻¹
pcpF (Sphingobium chlorophenolicum, UniProt Q8KN33) — kcat (N[C@@H](CS)C(=O)O; pH 6.5, added: GS-TriCH, ascorbic acid 2 mM): 0.37 ± 0.09 s⁻¹
B10 (UCK2) — kcat (O=c1ccn([C@@H]2O[C@H](CO)[C@@H](O)[C@H]2O)c(=O)[nH]1; pH 7.2, 25 °C, KCl 100 mM, added: ATP 100–200 µM): 5.2 ± 0.5 s⁻¹

Excerpt of the above:
moaA (Staphylococcus aureus, UniProt P69848) — kcat (Nc1nc2c(ncn2[C@@H]2O[C@H](COP(=O)(O)OP(=O)(O)OP(=O)(O)O)[C@@H](O)[C@H]2O)c(=O)[nH]1; pH 7.6, 25 °C, added: SAM, dithionite, MgCl2 1 mM): 0.00075 ± 5e-05 s⁻¹
Tat (Mus musculus, UniProt Q8QZR1) — kcat (N[C@@H](Cc1ccc(O)cc1)C(=O)O; pH 7, 38 °C, 100 mM phosphate, added: 10 mM KGA; PLP): 19.3 ± 4 s⁻¹
B9 (HCT R356D) — kcat (NCc1ccc(O)c(O)c1; pH 8, pseudo-first-order, added: p-coumaroyl CoA): 27.7 ± 1.1 s⁻¹
